Assay results gathered from unrelated publications.
Each line is one published result; not all experiments were run side by side. Values joined by “and” are separate records of one study, mostly repeats; a detail may differ. Converted amounts (≈) assume the structure as drawn.
Organism: Bacillus subtilis

| SMILES | test | system | setting | measurement | result |
| --- | --- | --- | --- | --- | --- |
| CC1CCC(C(C)C)C(OC2=C(Cl)C(=O)c3ccccc3C2=O)C1 (centres unmarked) | broth microdilution | MTCC 1427 |  | MIC | 12 µg/mL (≈ 34.6 µM) |
| NCCCC[C@H](NC(=O)[C@H](Cc1ccccc1)NC(=O)[C@H](CCC(N)=O)NC(=O)[C@H](Cc1ccccc1)NC(=O)[C@H](CCC(N)=O)NC(=O)[C@@H](N)Cc1ccccc1)C(N)=O |  |  |  | MBC | 520 µM (≈ 438 µg/mL) |
| CO[C@H]1/C=C/O[C@@]2(C)Oc3c(C)c(O)c4c(O)c(c(/C=N/N5CCN(C)CC5)c(O)c4c3C2=O)NC(=O)/C(C)=C\C=C\[C@H](C)[C@H](O)[C@@H](C)[C@@H](O)[C@@H](C)[C@H](OC(C)=O)[C@@H]1C | bacterial cytological profiling | ATCC 6633 |  | DNA width | 0.71 µm and 0.73 µm and 0.78 µm |
| N[C@@H](CS)C(=O)O | chemotaxis pathway, FRET | 168 |  | EC50 | 0.15 µM |
| CC1=N/C(=C\c2cc(F)c(O)c(F)c2)C(=O)N1C | cytoplasmic accumulation, flow cytometry |  |  | lowest detectable concentration | 100 nM |
| COc1cc(C=O)ccc1OC1=C(Cl)C(=O)c2ccccc2C1=O |  | MTCC 1427 | 10 µg/mL | zone of inhibition | 15 mm |
| CN(C)[C@@H]1C(O)=C(C(N)=O)C(=O)[C@@]2(O)C(O)=C3C(=O)c4c(O)cccc4[C@@](C)(O)[C@H]3C[C@@H]12 | bacterial cytological profiling | ATCC 6633 | concentration not given | cell perimeter | 6.43 µm and 6 µm and 6.22 µm |
| COc1ccc(N2N=C(C(=O)c3ccc(Nc4cnccn4)cc3)SC2=C(C#N)C#N)cc1 | broth microdilution | ATCC 35021 |  | MIC | 3.12 µg/mL (≈ 6.89 µM) |
| CC[C@H](C)[C@H](N)C(=O)O | chemotaxis pathway, FRET | 168 |  | EC50 | 2.3 µM |
| O=C(N[C@H](CO)[C@H](O)c1ccc([N+](=O)[O-])cc1)C(Cl)Cl | broth microdilution | ATCC 35021 |  | MIC | 6.25 µg/mL (≈ 19.3 µM) |
| O=C(O)c1cn(C2CC2)c2cc(N3CCNCC3)c(F)cc2c1=O | bacterial cytological profiling | ATCC 6633 | concentration not given | cell width | 0.87 µm and 0.95 µm and 0.93 µm |
| COc1ccc(N2N=C(C(C)=O)SC2=C(C#N)C(=O)c2ccc(Nc3cnccn3)cc2)cc1 | broth microdilution | ATCC 35021 |  | MIC | 12.5 µg/mL (≈ 26.6 µM) |
| COc1cccc2c1C(=O)c1c(O)c3c(c(O)c1C2=O)C[C@@](O)(C(=O)CO)C[C@@H]3O[C@H]1C[C@H](N)[C@H](O)[C@H](C)O1 | bacterial cytological profiling | ATCC 6633 |  | DNA width | 0.63 µm and 0.6 µm and 0.66 µm |
| COc1ccc(-n2nc(C(=O)c3ccc(Nc4cnccn4)cc3)sc2=N)cc1 | broth microdilution | ATCC 35021 |  | MIC | 12.5 µg/mL (≈ 30.9 µM) |
| CC[C@H](C)CCCCC(=O)N[C@@H](CCN)C(=O)N[C@H](C(=O)N[C@@H](CCN)C(=O)N[C@H]1CCNC(=O)[C@H]([C@@H](C)O)NC(=O)[C@H](CCN)NC(=O)[C@H](CCN)NC(=O)[C@H](CC(C)C)NC(=O)[C@@H](CC(C)C)NC(=O)[C@H](CCN)NC1=O)[C@@H](C)O | broth microdilution | 168, cation-adjusted Mueller-Hinton broth | 20 to 24 h, 37 °C, 0.002% polysorbate 80 | MIC | 8 µg/mL (≈ 6.84 µM) |
| Cc1ccc(C(C)C)c(OC2=C(Cl)C(=O)c3ccccc3C2=O)c1 | broth microdilution | MTCC 1427 |  | MIC | 12 µg/mL (≈ 35.2 µM) |
| CSCC[C@H](N)C(=O)O | chemotaxis pathway |  |  | EC50 | 3.9 µM |
| CC1(C)S[C@@H]2[C@H](NC(=O)[C@H](N)c3ccc(O)cc3)C(=O)N2[C@H]1C(=O)O |  | MTCC 1427 | 10 µg/mL | zone of inhibition | 21 mm |
| CC(=O)C1=NN(c2ccc([N+](=O)[O-])cc2)C(=C(C#N)C(=O)c2ccc(Nc3cnccn3)cc2)S1 | broth microdilution | ATCC 35021 |  | MIC | 3.12 µg/mL (≈ 6.44 µM) |
| N[C@@H](Cc1ccccc1)C(=O)O | chemotaxis pathway, FRET | 168 |  | EC50 | 48.6 µM |
| CC(=O)C1=NN(c2ccccc2)C(=C(C#N)C(=O)c2ccc(Nc3cnccn3)cc2)S1 | broth microdilution | ATCC 35021 |  | MIC | 50 µg/mL (≈ 114 µM) |
| N[C@@H](CC(=O)O)C(=O)O | chemotaxis pathway, FRET |  | 168 | EC50 | > 1000 µM |
| CN[C@H](CC(C)C)C(=O)N[C@H]1C(=O)N[C@@H](CC(N)=O)C(=O)N[C@H]2C(=O)N[C@H]3C(=O)N[C@H](C(=O)N[C@H](C(=O)O)c4cc(O)cc(O)c4-c4cc3ccc4O)[C@H](O)c3ccc(c(Cl)c3)Oc3cc2cc(c3O[C@@H]2O[C@H](CO)[C@@H](O)[C@H](O)[C@H]2O[C@H]2C[C@](C)(N)[C@H](O)[C@H](C)O2)Oc2ccc(cc2Cl)[C@H]1O | broth microdilution | 168, cation-adjusted Mueller-Hinton broth | 20 to 24 h, 37 °C, 0.002% polysorbate 80 | MIC | 0.25 µg/mL (≈ 0.173 µM) |
| NC(=O)CC[C@H](N)C(=O)O | chemotaxis pathway, FRET | 168 |  | EC50 | 5.9 µM |
| CO[C@H]1[C@H](O[C@H]([C@H]2O[C@@H](n3ccc(=O)[nH]c3=O)[C@H](O)[C@@H]2O)[C@H](NCCCNC(=O)[C@@H](NC(=O)[C@@H](NC(=O)N[C@H](C(=O)O)C(C)C)[C@@H]2CCN=C(N)N2)[C@@H](O)C(C)C)C(=O)O)O[C@H](CN)[C@H]1O | microplate alamar blue | ATCC 6051 |  | MIC90 | > 35 µg/mL |
| N[C@@H](Cc1c[nH]c2ccccc12)C(=O)O | chemotaxis pathway, FRET | 168 |  | EC50 | 115 µM |
| CC1(C)S[C@@H]2[C@H](NC(=O)[C@H](N)c3ccccc3)C(=O)N2[C@H]1C(=O)O | bacterial cytological profiling | ATCC 6633 | concentration not given | cell length | 3.89 µm and 4.07 µm and 3.87 µm |
| O=C1C(Cl)=C(n2ccnc2)C(=O)c2ccccc21 |  | MTCC 1427 | 10 µg/mL | zone of inhibition | 9 mm |
| N[C@@H](CO)C(=O)O | chemotaxis pathway, FRET | 168 |  | EC50 | 2.6 µM |

Excerpt of the above:
| SMILES | test | system | setting | measurement | result |
| --- | --- | --- | --- | --- | --- |
| CO[C@H]1[C@H](O[C@H]([C@H]2O[C@@H](n3ccc(=O)[nH]c3=O)[C@H](O)[C@@H]2O)[C@H](NCCCNC(=O)[C@@H](NC(=O)[C@@H](NC(=O)N[C@H](C(=O)O)C(C)C)[C@@H]2CCN=C(N)N2)[C@@H](O)C(C)C)C(=O)O)O[C@H](CN)[C@H]1O | microplate alamar blue | ATCC 6051 |  | MIC90 | > 35 µg/mL |
| CN(C)[C@@H]1C(O)=C(C(N)=O)C(=O)[C@@]2(O)C(O)=C3C(=O)c4c(O)cccc4[C@@](C)(O)[C@H]3C[C@@H]12 | bacterial cytological profiling | ATCC 6633 | concentration not given | cell perimeter | 6.43 µm and 6 µm and 6.22 µm |
| CC1CCC(C(C)C)C(OC2=C(Cl)C(=O)c3ccccc3C2=O)C1 (centres unmarked) | broth microdilution | MTCC 1427 |  | MIC | 12 µg/mL (≈ 34.6 µM) |
| NC(=O)CC[C@H](N)C(=O)O | chemotaxis pathway, FRET | 168 |  | EC50 | 5.9 µM |
